Experimental data gathered from unrelated publications.
Numbered parts are unrelated; each lists some results of a single study. Changes are numbered by the printed parent chain.

Block 1 — technique: DHFR PCA, deep sequencing; matrix: yeast; added: (+)-ABA 0 µM; baseline: wild-type fitted maximum; direction: higher = stronger binding
Target: ABI1, truncated, D143A, DHFR fusion (Arabidopsis thaliana)
Setting: methotrexate growth selection, single substitutions
Starting sequence: PYL1, truncated, DHFR fusion (Arabidopsis thaliana); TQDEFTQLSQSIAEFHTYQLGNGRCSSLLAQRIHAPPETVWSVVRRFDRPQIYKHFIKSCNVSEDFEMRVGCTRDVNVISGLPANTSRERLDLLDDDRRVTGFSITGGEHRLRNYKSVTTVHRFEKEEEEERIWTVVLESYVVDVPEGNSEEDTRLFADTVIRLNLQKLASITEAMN; partner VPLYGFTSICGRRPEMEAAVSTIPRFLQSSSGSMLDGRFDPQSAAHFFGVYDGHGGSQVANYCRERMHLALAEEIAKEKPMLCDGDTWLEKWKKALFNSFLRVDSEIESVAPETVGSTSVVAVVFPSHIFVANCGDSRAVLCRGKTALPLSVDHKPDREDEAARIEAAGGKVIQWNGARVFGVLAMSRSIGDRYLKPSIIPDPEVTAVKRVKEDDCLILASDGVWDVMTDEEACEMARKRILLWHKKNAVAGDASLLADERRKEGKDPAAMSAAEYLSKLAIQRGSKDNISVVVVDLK
| Change | relative binding score |
| --- | --- |
| H110K | 25.4% |
| A13W | 0.37% |
| L112T | 1.29% |
| R74W | 0.538% |
| T135S | 8.44% |
| D3S | 19.2% |
| P36G | 1.26% |
| E14I | -0.368% |
| S42M | -0.626% |
| V118I | 29.2% |
| T154K | 1.47% |
| N114M | -2.02% |
| C72Q | 35% |
| E89M | 2.06% |
| K54M | -0.298% |
| A84I | 35.3% |
| R45E | 5.47% |
| S150V | 6.09% |

Block 2 — technique: protein-binding microarray; form: double-stranded DNA, one strand shown; matrix: in vitro; tested at: not given; direction: higher = stronger binding
Target: Transcriptional repressor CTCF (CTCF, Homo sapiens, UniProt P49711, residues 1-727, full length assumed)
Sequence of UniProt P49711 (whole entry, looked up): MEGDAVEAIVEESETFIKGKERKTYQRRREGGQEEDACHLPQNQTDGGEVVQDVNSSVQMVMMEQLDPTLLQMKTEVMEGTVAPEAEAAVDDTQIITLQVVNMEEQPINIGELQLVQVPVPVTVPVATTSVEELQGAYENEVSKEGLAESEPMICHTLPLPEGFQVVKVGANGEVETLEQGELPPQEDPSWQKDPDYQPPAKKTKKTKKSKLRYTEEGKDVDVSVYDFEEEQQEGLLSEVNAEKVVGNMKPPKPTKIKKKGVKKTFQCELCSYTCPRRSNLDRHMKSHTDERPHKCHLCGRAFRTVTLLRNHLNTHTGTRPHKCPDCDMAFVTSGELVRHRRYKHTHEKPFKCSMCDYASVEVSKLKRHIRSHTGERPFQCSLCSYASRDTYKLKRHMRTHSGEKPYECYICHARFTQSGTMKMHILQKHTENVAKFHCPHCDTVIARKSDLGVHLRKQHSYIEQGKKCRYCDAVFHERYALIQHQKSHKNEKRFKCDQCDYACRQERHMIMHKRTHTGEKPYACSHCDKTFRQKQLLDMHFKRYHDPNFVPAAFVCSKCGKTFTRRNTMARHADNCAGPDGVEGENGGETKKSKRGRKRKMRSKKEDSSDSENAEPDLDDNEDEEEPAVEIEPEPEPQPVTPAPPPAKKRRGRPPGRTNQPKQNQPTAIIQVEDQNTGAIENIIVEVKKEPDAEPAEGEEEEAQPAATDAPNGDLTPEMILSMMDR
Setting: k-mer, scored over probes, only values ≥0.25
| Oligonucleotide | E-score |
| --- | --- |
| ATATTGAT | 0.297 |
| GTACATAA | 0.265 |
| GCCATATA | 0.283 |
| TCAACAAA | 0.258 |
| AGACAATA | 0.264 |
| CACATGCG | 0.276 |
| ATTATAAC | 0.341 |
| ATTTACGG | 0.328 |
| GCGAAAAA | 0.254 |
| AAAAACAA | 0.324 |
| CTTTATTA | 0.275 |
| CATGCGCA | 0.386 |
| AATCGCGC | 0.251 |
| ATACTATA | 0.317 |
| ATAACGTG | 0.304 |
| TATCTTAA | 0.278 |

Block 3 — technique: protein-binding microarray; form: double-stranded DNA, one strand shown; matrix: in vitro; tested at: 250 nM; setting: 60-bp whole probe; added: salmon DNA 0.4 mg/ml; baseline: random background probes; direction: higher = stronger binding; shared flanks, not repeated: GCCTAGCAC … GTCTTGATTCGCTTGACGCTGCTG
Target: Interferon regulatory factor 5, full length, phosphomimetic (IRF5, Homo sapiens, UniProt Q13568-2, residues 1-514, K96S/S451D/S453D/S456D/S462D)
| Oligonucleotide | log fluorescence |
| --- | --- |
| GACGATCTGGGGTTTCGAGACGTGCTA | 0.982 z-score |
| TTAGGTTTGGGTTTCGGTTAGTGCTAG | 8.37 z-score |
| GACAATTTCAGACTGGAGACGTGCTAG | 0.488 z-score |
| GACGGTATCCTTATTCTGACGTGCTAG | -0.00592 z-score |
| TTAGTTTTCCTTATCCTTTAGTGCTAG | 1.93 z-score |
| CTTCTTTTTTTTCTTTAAAAGTGCTAG | 1.45 z-score |
| GACGGTATCGGACTGGGCACGTGCTAG | 0.807 z-score |
| TTAGGACGGGGTTTCGGTTAGTGCTAG | 6.9 z-score |
| TGAGGACTGGGGTTTCGGTTAGTGCTA | 6.25 z-score |
| TCATGTTTCTTCTGCTGACTGTGCTAG | 1.19 z-score |
| TACGGTATCGGTATCGGGACGTGCTAG | 6.44 z-score |
| GACGATTTCGGGTTTCGAGATGTGCTA | 4.83 z-score |
| GACGGTATCGGTTTCGAGACGTGCTAG | 8.42 z-score |
| TTAGATAACGGGTTTCGATTAGTGCTA | 7.19 z-score |
| GACGGTCTCCTTATCGTGACGTGCTAG | -0.275 z-score |
| GACGGACCGCTTCTCCTGACGTGCTAG | -0.544 z-score |

Block 4 — technique: RNA Bind-n-Seq; form: RNA; matrix: in vitro; tested at: 365 nM; baseline: no-protein control; direction: higher = stronger binding
Target: RNA binding protein fox-1 homolog 2, RRM domain, GST-SBP tag (RBFOX2, Homo sapiens, UniProt O43251-10, residues 100-194)
Setting: natural RNA segment, single round, ends assumed
Shared flanks, not repeated: GGGAGUUCUACAGUCCGACGAUC … UGGAAUUCUCGGGUGCCAA
Residues (chain): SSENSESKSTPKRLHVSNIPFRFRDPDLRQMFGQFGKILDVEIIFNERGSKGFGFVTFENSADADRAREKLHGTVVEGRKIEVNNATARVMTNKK
| Oligonucleotide | RBNS enrichment (R) |
| --- | --- |
| GGCCCCUGCCCUUCUCUUUCUCCCAGAUGGAUCCUUCCAGCAGAGAAAUAAAGCCUUAUCCAUUACACGCACUGGUUUUAAGGUGGUUUGUGUCUUGGCUGAGGCAGGGG | 0.211 |
| CUUGCUGCAUGAUGGUCAGUAGCUGAUCUGUUAUGGCAUUCACUUCCAGAUUAAUUUUCCGUGUUUGAAGUAUGUGCAUAUGUGCUUUACAGAAUAAAACAUCUGAAUUU | 2.1 |
| GCUGGGGUUUCUAGUAAAGUCUGUGAGCCUCUCCACCAGUCCCUGUAAAUGCUAAUGCAGCCCAGCCCUGCCUGUUGUUUUGGAUCCUUGGUGUCUCAUGUGUACUUCCU | 0.724 |
| ACAGGGAGAGGUGGGUAAUAAACUUCCUGUAAUGACAGUGUUUGGCAUUUCUUUAUGGAUGGAAUUGGAACAUGAACAAGACCAUGUCCAGCGUUUUUACUGUGAAUGUA | 1.53 |
| UGGGCCUGGAGUGUCCCUGCUCCAGCCCUGCCAGGGACAGGUUUCUCCCUGGAUACUCUUGGCCCACCGCAGAUCUGUAGCCAGUCAGAGGAGGAGGAGAAGGAGCCCCU | 0.478 |
| UACUAGCUCAGUGCUCAAUCUCCAGGUACUAUAUAUACAUUUGCCCGUUUUAUCUCUAAUGUGAAAUAAAUCCCCAAACACUUGUUUAUCGUGUAGCGUACCUAAAAGAC | 0.308 |
| UUGACUCGGGUACAAUAAAACUCUCAACACACACAAAGCCCAUCAGGCAAGAGUACAGUAAGCCUAAGGGGACUUGCUGCUCAAACCAAAAAUUAACUCUGAAGGUCAGU | 0.631 |
| CUGGUGUGGUGUAGACACGGCUUCUUUUGGCAUAUUCUAGAUCAGACAGUGUCACUGACAAACAAGAGGGACCUGCUGGCCAGCCUUUGUUGUGCCCAAAGAUCCAGACA | 0.201 |
| CUUCUGAUGUUUUCUGGCUGUCUUAGCAUUCGCCUUUUCUCUUGCCAGCCAGUUCUGGGGAUUCAGAGGUGCAGGGAAGGGUUAGGGAAAAGGGGGCAAGGUUUUGGCAU | 0.479 |
| UGAUUAACCAUUUUUUUUUUAGUUUAUAUUAGUACUUUGUACAUAGUAGGCAUUUAGCAAACAUUUAUUGACAAAAAAUAAAACAAAAACUGACAAAUGAAUGUGUAUAA | 0.373 |
| AAAAUAUAUAUAUACACACAAGCACUAUUUUCUUAUGUCAUUUAUGACAUUUUUUAUCUGUAUACUUUUUUGAUGUGAUUGUUUUUUAACAUGCUAAAAGUAAUAAGUAU | 1.68 |
| GUGCCUGCUAGCCAUUGUAUAAAAUUAAAACAUGAAGAAUAUUUGUUUUGAGCAUGGCUAGUGGAUUUACAACAACACAUGCCUGUCACUGCUGGAGUCAGACUUACAAA | 0.365 |

Block 5 — technique: RNA Bind-n-Seq; form: RNA; matrix: in vitro; tested at: not given; baseline: input RNA pool; direction: higher = stronger binding
Target: RING finger protein unkempt homolog, zinc fingers 1-6, GST-SBP tag (UNK, Homo sapiens, UniProt Q9C0B0, residues 30-357)
Setting: RNA with constant flanks, human-mouse chimeric sites, ends assumed
Shared flanks, not repeated: GGGAGUUCUACAGUCCGACGAUC … CAACAGAGGAUUGAGCAUCA
Target sequence (chain): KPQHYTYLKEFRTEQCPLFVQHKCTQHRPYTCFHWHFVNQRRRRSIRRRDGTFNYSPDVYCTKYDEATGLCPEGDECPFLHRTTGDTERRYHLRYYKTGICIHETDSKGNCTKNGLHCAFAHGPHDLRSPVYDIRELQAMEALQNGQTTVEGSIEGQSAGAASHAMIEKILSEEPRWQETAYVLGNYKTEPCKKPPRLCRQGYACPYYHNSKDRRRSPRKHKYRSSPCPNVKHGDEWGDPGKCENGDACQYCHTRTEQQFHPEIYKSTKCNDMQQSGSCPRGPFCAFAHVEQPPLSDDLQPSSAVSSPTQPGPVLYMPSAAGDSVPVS
| Oligonucleotide | bound/input enrichment [ratio] |
| --- | --- |
| AAAGUGAUGACUAUGUUUGUCCAACGACAGGUGUUUGCGGAGAGCAAAGAUGAGAUUGCGUUAGUCCUCUAUGGCACAGAUGGCACUGAUAAUGCCCUUUCUGGUGGGGACCAGUAUCAG | 0.24 |
| GUGUCCUGCUUUCAACUUAAAUCACUGAGGCAUCUCUACUGUUCUGUGAGCAUCAGGACUGUAGCGCUUGCCACCACCAUGAGAGUUCAGAAGCAGCCUUUCUGUGGAGAGUGAGAAUGA | 0.0921 |
| AGCACAACCCCAGCAAAGCUAAGAAAUCCUUGUACAAGUGAACAAAACUGCACCAGCCCAUUUAGCUACAAAAAUGUGCUCAGUCUUACUGACAGAGGAGAAGUAUUCAAUGAACUUGUU | 0.724 |
| CCAAUUGUGGAGCAGUACUUGAAGACAAAGAAAAAUUCUAAUAAUUUAAUCAUGAAAUACAUUAGCUGCCGCCUGCUGACACUCAUCAUUAUACUGUUAGCGUGUAUCUACUUGAGCUAU | 0.631 |
| UAAAUUAGGGCUGCCGUUUUCUGUUUCUCCCUGGGCUGCGGAAAGCCAGAAGAUUUUAUCUAGUUUGUACAAGGCUGCUGGUGUUCCCUCUUUUUUUCCCUCUCUCUGUUUUUGGCUGCA | 1.61 |
| CCCUCCCCGGGCCACCCACCCCUCCCGGCUCCCCGCCAGAGCAAGGUUUUCUUCUUAUUUCAUAGCCAAUAAGAAAAAUGUUCUACGCACAUUUUGUCCUCAGUAAACGAGGGCCUCUGG | 1.92 |
| CUAGCAGUCCAGCAGCUAGAAGGAGCCUUGAGACAAACACUCCACACACAGGGAAGGCGAUAACAUUGUACAUUGGUUUACAUUUUUCUCCUUGAAUGAUUUUUCUAGAGGUCAUAGUGC | 0.313 |
| AACAUUUUGUCAAAUUGUUAUGUUCCUGUGAAACAAGUGAACACUCUGAUACACUUCAUUUAGUUGUACAUCUGUAUGAUAGAGAAAUGUAAAUAUGUUAAUCCAAGCAAUGUGUCACUU | 0.28 |
| CCCUCCCCGGGCCACCCACCCCUCCCGGCUCCCCGCCGAGAUCCAGGUUUCUUCUUAUUUCAUAGCCAAUAAGAAAAAUGUUCUACGCACAUUUUGUUCUCAGUAAACGAGGGCCUCUGG | 1.02 |
| GGAAGUACAAUGAUGGAGAUUGAUGGUGACAAAGGCAAGCAGGGCGGGCCCACCUACUACAUAGAUACCAAUGCCCUCCGCGUGCCCAGGGAGAACAUGGAGGCCAUCUCACCACUCAAG | 0.288 |
| UAAGUCCUGUGCCAGCACUUCGCUCAUAAAGUUUUAAAUUCUGGACCAAUUGUGUUUGUUUCCUGAUUAUUGUAUCCAAUACUUUGCGUACUAUGUGACUCACUCUUACUGAUAAUAAAA | 0.232 |

For quick reference, copied from above (block 2):
| Oligonucleotide | E-score |
| --- | --- |
| GCGAAAAA | 0.254 |
| AATCGCGC | 0.251 |
| TCAACAAA | 0.258 |
| CTTTATTA | 0.275 |
| CACATGCG | 0.276 |
| GTACATAA | 0.265 |
| ATATTGAT | 0.297 |
| GCCATATA | 0.283 |
